# Measurements gathered from unrelated publications.
# A part holds a random share of what one study measured. Values joined by “and” are separate records of one study, mostly repeats; a detail may differ.
# Chain of UniProt Q99640 (whole entry, looked up): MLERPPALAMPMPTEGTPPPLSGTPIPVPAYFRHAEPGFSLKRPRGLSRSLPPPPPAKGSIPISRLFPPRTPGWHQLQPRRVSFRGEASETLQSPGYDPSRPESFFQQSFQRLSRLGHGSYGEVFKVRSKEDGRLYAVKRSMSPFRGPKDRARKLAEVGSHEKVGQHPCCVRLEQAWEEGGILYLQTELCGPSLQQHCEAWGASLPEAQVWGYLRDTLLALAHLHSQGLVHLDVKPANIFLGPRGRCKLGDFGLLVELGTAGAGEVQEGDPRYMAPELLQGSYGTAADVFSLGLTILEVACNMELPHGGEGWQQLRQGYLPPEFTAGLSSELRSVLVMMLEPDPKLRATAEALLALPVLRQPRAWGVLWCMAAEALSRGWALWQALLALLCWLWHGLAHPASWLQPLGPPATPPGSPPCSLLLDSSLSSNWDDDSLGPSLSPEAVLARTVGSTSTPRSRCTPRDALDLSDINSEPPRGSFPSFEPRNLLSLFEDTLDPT

# Series 1
# SMILES: Cc1ccc(O)c(C)c1-c1cnc2[nH]c(-c3cnc(N4CCC5(CC4)CC(N4CCN(c6ccc(N[C@H]7CCC(=O)NC7=O)cc6F)CC4)CO5)nc3)cc2c1C#N (single isomer, unassigned)
target or system,test,setting,inhibition
NCI-H1568,cell proliferation,123.5 nM,5.37% and 7.12%
"PKMYT1 (Homo sapiens, UniProt Q99640)",,1.111 µM,99%
PKMYT1,KINOMEscan,1000 nM,100%
"PKMYT1 (Homo sapiens, UniProt Q99640)","enzyme activity, inhibitor",1.111 µM,100%
"PKMYT1 (Homo sapiens, UniProt Q99640)",,1111.11 nM,101% and 98.6%
HCC1569,"automated capillary immunoblot, measured: CDK1 phospho-Thr14","0.15 nM, 24 h",14.9%
"PKMYT1 (Homo sapiens, UniProt Q99640)","binding, HTRF",10000 nM,99.5% and 101%

# Series 2
# SMILES: C[C@@H]1CN(c2ccc(-c3cc(C(=O)NCCOCCOCCOCCOCCNC(=O)Cn4cc(-c5[nH]cc(C(=O)N[C@@H](CC(N)=O)c6ccc(F)c(Cl)c6)c5-c5ccc(Cl)cc5F)cn4)ccc3F)cc2NC(=O)c2c[nH]c(=O)cc2C(F)(F)F)C[C@H](C)N1C
# Read-out: thermal unfolding
# Technique: differential scanning fluorimetry
# Concentration: 5.5 µM
# Reading: higher = more unfolded
# WDR5: WD repeat-containing protein 5 (WDR5, Homo sapiens, UniProt P61964)
# DCAF1: DDB1- and CUL4-associated factor 1 (DCAF1, Homo sapiens, UniProt Q9Y4B6)
# Chain of UniProt Q9Y4B6 (whole entry, looked up): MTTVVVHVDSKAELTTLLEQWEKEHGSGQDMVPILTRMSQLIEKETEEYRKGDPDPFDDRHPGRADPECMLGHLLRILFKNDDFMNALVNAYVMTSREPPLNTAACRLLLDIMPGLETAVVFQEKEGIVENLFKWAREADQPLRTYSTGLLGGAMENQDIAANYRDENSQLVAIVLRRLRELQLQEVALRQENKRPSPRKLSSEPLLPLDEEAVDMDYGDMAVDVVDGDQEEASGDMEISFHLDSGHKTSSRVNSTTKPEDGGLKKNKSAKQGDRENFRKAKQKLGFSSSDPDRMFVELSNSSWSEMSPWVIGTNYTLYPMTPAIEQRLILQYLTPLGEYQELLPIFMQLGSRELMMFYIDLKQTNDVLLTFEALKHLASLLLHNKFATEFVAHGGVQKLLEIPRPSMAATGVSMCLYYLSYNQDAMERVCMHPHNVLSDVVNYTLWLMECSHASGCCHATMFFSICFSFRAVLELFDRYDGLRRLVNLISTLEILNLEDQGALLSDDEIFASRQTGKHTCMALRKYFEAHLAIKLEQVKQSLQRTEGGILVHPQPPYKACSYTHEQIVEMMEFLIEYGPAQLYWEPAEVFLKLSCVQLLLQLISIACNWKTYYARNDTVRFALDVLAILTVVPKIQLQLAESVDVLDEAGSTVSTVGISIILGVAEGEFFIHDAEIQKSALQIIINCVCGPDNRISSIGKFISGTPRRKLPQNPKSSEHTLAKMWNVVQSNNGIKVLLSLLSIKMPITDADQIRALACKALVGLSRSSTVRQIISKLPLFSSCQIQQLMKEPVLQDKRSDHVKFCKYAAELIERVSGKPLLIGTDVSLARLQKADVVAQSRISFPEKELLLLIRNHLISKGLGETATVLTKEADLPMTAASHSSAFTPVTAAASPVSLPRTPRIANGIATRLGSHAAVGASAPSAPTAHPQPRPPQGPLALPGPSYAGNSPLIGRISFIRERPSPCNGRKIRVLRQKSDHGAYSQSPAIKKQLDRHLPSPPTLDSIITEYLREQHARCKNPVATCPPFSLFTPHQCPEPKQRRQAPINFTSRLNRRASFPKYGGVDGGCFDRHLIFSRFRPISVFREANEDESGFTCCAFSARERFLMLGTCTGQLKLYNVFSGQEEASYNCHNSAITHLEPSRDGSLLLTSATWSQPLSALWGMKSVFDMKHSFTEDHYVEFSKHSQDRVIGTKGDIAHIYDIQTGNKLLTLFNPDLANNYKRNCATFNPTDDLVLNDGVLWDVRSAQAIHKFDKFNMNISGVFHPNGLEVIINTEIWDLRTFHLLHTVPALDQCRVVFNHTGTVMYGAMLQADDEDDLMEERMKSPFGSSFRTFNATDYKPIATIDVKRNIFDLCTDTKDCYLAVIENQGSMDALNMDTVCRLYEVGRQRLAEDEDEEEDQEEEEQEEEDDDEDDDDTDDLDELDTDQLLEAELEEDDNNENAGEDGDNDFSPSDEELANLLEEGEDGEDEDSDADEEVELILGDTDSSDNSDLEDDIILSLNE
target,setting,SYPRO Orange fluorescence [a.u.]
WDR5,67.61 °C,6970
DCAF1,57.21 °C,25700
DCAF1,91.21 °C,33900
DCAF1,68.81 °C,55500
WDR5,71.61 °C,7360
WDR5,39.6 °C,14300
WDR5,69.81 °C,6780
WDR5,29.2 °C,14900
DCAF1,25.2 °C,7440
DCAF1,42.4 °C,11100
DCAF1,41 °C,10800

# Single results of other studies
# SLC6A19: Sodium-dependent neutral amino acid transporter B(0)AT1 (SLC6A19, Homo sapiens, UniProt Q695T7)
# Chain of UniProt Q695T7 (whole entry, looked up): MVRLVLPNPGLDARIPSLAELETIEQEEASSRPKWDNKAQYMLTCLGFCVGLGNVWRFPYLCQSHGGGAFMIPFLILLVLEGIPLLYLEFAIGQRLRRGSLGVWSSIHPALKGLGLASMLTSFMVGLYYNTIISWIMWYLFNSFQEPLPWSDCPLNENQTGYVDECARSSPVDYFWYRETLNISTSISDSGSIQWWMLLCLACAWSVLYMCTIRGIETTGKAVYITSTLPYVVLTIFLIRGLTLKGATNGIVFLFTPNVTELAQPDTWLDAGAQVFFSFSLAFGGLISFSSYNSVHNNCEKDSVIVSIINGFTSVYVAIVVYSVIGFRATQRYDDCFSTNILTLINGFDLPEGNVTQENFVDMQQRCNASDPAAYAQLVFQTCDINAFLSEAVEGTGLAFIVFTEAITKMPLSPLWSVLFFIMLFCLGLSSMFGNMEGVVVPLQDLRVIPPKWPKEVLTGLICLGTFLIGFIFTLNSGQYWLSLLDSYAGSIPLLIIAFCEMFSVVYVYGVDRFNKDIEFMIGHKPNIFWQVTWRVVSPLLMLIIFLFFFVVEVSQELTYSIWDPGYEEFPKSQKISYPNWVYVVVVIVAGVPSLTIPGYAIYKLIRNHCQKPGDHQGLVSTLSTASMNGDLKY
Compound,target or system,test,test system,setting,scale,measurement,value
CCNC(=O)COc1ccc(I)c(C)c1,SLC6A19,"inhibitor, L-[14C]leucine uptake",CHO-BC cells,"0.01 µM, 6 min, 37 °C, unit not given, with: GPNA 3 mM, JPH203 3 µM",reference: uninhibited cells,remaining transport activity,0.847
Cc1nc(C)c(C=[N+]([O-])C(C)(C)C)nc1C,,MTT,"primary midbrain neurons, Sprague-Dawley rat","100 µM, 2 h pretreatment, with: 20 µM MPP+ for 24 h",reference: untreated control,viability,66%
CCNC(=O)COc1ccc(Br)c(C)c1,SLC6A19,"inhibitor, L-[14C]leucine uptake",CHO-BC cells,"0.01 µM, 6 min, 37 °C, unit not given, with: GPNA 3 mM, JPH203 3 µM",reference: uninhibited cells,remaining transport activity,1
Cc1cc(NCC(=O)NC(C)C)cc(C)c1Cl,SLC6A19,"inhibitor, FLIPR membrane potential",CHO-BC cells,"10 µM, unit not given",reference: no inhibitor,remaining transport activity,0.194
CCNC(=O)COc1cc(C)c(Cl)c(C)c1,SLC6A19,"inhibitor, L-[14C]leucine uptake",CHO-BC cells,"0.3 µM, 6 min, unit not given, with: GPNA 3 mM, JPH203 3 µM",reference: uninhibited cells,remaining transport activity,0.633

# Some of these lines once more (series 2):
target,setting,SYPRO Orange fluorescence [a.u.]
DCAF1,91.21 °C,33900
